Results collected from several papers.
Compare with care: the assays were run in different laboratories.
Observed: metabolic stability

SMILES | system | setting | endpoint | result
Cn1ncc2cc(CN3CCC(F)(F)C(COc4cccc(F)c4)C3)ccc21 (stereo not shown) | mouse, liver microsomes | – | scaled CLint | 672 mL/min/kg
O=C(c1ccc(-c2cccc(C(F)(F)F)c2)cc1)N1CCN(c2ncccn2)CC1 | mouse, liver microsomes | – | microsomal CLint | 66 µL/min/mg
COc1ccc(CN2CCC(F)(F)C(COc3ccc(F)c(F)c3)C2)cc1F (stereo not shown) | mouse, liver microsomes | – | scaled CLint | 742 mL/min/kg
Cc1nc2ccc(S(=O)(=O)n3nc(SCc4ccc(Cl)cc4)nc3N)cc2s1 | mouse, liver microsomes | 1 µM, pH 7.4 | microsomal CLint | 303 µL/min/mg
Fc1ccc(OCC2CN(Cc3cn4ccccc4n3)CCC2(F)F)cc1F (stereo not shown) | mouse, liver microsomes | – | scaled CLint | 1960 mL/min/kg
CC(C)(C)[C@H](NC(=O)c1ccc(Oc2ccc(C(=O)N[C@H]3CCCC[C@@H]3O)cc2)cc1)C(=O)NCCN1CCCC1 | mouse, liver microsomes | 1 µM, pH 7.4 | microsomal CLint | 12.4 µL/min/mg
Fc1ccc(OCC2CN(Cc3ncn4ccccc34)CCC2(F)F)cc1 (stereo not shown) | mouse, liver microsomes | – | scaled CLint | 2880 mL/min/kg
OCCn1nc(-c2ccccc2)c2c(Cl)c(-c3ccccc3)nnc21 | mouse, liver microsomes | 1 µM | microsomal CLint | > 554 µL/min/mg
CC(C)n1ncc2c(C(=O)NCCN)cc(C3CC3)nc21 | mouse, liver microsomes | – | microsomal CLint | < 9.6 µL/min/mg
Cc1ncsc1-c1ccc([C@@H]2CCCCCCNC(=O)C[C@@H]3N=C(c4ccc(cc4)OCCCCCC(=O)N[C@@H](C(C)(C)C)C(=O)N4C[C@H](O)C[C@H]4C(=O)N2)c2c(sc(C)c2C)-n2c(C)nnc23)cc1 | mouse, liver microsomes | 1 µM | scaled CLint | 244 mL/min/kg
COc1ccc(CN2CCC(F)(F)C(COc3ccc(F)c(C)c3)C2)cc1F (stereo not shown) | mouse, liver microsomes | – | scaled CLint | 705 mL/min/kg
CNCCNC(=O)c1cc(C2CC2)nc2c1cnn2C(C)C | mouse, liver microsomes | – | microsomal CLint | 114 µL/min/mg
CN(Cc1cc(C2CC2)on1)C(=O)c1cccc(-c2ccc(F)cc2)c1 | male CD-1 mouse, liver microsomes | 2 µM, pH 7.5 | microsomal CLint | 117 µL/min/mg
CC(C)n1ncc2c(C(=O)NCC3CCN3)cc(C3CC3)nc21 (stereo not shown) | mouse, liver microsomes | – | scaled CLint | 234 mL/min/kg
C/C(=N\OCCN(C)Cc1ccccc1)c1ccc(C(F)(F)F)cc1 | mouse, liver microsomes | – | scaled CLint | 2750 mL/min/kg
CC(C)n1ncc2c(C(=O)NC3(C)CNC3)cc(C3CC3)nc21 | mouse, liver microsomes | – | microsomal CLint | < 9.6 µL/min/mg
C=CC(=O)N1CCCC(n2c(=O)c3ncccc3n(Cc3ccc(Oc4ccccc4)cc3)c2=O)C1 (stereo not shown) | male CD-1 mouse, hepatocytes | 1 µM | hepatocyte CLint | 83.5 µL/min/10⁶ cells
CC(C)n1ncc2c(C(=O)NCCN(C)C)cc(C3CC3)nc21 | mouse, liver microsomes | – | microsomal CLint | 65.2 µL/min/mg
CCC(CC)CNC(=N)NC(=N)NCCCCCCNC(=N)NC(=N)NCC(CC)CC | mouse, liver microsomes | 2 µM | microsomal CLint | 21.4 µL/min/mg

A few entries again:
SMILES | system | setting | endpoint | result
COc1ccc(CN2CCC(F)(F)C(COc3ccc(F)c(F)c3)C2)cc1F (stereo not shown) | mouse, liver microsomes | – | scaled CLint | 742 mL/min/kg
Cc1nc2ccc(S(=O)(=O)n3nc(SCc4ccc(Cl)cc4)nc3N)cc2s1 | mouse, liver microsomes | 1 µM, pH 7.4 | microsomal CLint | 303 µL/min/mg
